Experimental data gathered from unrelated publications.
Compare with care: the assays were run in different laboratories. Several values in a cell are separate wells, animals, samples, runs or records. ± marks the error that the study gave.
APP amyloid-beta peptide: Amyloid-beta precursor protein, amyloid-beta peptide (APP, Homo sapiens, UniProt P05067)
ESR1: Estrogen receptor (ESR1, Homo sapiens, UniProt P03372)
IDO1: Indoleamine 2,3-dioxygenase 1 (IDO1, Homo sapiens, UniProt P14902)

Chains of the proteins cited; added tags and fusions are not shown. Residues count along the entry.
UniProt P05067, whole entry, looked up: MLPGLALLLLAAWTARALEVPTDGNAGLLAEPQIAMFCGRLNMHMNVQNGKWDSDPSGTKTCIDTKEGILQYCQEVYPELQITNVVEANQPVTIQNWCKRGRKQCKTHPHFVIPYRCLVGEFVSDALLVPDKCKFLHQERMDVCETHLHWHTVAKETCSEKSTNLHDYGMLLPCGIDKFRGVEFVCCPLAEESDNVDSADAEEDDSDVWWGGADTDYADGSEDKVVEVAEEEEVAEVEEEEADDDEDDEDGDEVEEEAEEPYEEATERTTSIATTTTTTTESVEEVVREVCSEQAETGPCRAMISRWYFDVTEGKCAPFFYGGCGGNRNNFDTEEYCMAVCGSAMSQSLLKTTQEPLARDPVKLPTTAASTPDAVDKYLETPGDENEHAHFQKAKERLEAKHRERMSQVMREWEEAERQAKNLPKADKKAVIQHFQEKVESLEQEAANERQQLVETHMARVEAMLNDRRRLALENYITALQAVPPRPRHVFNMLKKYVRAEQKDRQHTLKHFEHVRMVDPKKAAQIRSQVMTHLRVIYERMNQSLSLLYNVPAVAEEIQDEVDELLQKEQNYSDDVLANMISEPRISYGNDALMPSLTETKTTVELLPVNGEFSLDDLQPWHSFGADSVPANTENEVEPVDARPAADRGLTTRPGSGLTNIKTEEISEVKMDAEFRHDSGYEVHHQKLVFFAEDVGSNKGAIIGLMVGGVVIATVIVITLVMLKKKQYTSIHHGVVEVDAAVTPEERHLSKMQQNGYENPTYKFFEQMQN
UniProt P03372, whole entry: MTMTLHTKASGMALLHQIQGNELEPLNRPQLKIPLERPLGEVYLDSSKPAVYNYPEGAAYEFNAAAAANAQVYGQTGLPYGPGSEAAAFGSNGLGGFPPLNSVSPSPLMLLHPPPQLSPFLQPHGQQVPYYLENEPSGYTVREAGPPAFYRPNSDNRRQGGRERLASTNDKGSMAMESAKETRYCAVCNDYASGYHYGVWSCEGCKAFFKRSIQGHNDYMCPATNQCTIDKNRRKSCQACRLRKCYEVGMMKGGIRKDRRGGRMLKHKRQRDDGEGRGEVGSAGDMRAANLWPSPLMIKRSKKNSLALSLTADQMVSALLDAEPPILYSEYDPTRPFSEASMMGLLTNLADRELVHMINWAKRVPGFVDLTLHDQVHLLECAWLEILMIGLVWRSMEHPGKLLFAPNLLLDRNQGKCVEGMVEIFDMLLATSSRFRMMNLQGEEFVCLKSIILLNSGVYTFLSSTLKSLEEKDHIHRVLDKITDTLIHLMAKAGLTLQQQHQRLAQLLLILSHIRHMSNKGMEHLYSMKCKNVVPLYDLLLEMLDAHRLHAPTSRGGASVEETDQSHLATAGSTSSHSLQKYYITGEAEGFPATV
UniProt P14902, whole entry: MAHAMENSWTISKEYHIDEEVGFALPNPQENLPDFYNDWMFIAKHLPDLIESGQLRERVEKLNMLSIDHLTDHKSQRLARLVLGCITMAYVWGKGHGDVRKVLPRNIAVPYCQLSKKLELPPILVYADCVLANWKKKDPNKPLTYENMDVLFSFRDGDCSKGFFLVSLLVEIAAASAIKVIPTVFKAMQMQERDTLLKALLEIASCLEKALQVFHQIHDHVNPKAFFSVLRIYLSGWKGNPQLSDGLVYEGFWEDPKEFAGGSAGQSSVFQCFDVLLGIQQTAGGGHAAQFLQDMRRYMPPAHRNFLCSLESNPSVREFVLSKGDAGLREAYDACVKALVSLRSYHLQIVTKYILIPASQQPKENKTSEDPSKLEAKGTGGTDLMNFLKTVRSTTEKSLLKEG
UniProt Q13164, whole entry: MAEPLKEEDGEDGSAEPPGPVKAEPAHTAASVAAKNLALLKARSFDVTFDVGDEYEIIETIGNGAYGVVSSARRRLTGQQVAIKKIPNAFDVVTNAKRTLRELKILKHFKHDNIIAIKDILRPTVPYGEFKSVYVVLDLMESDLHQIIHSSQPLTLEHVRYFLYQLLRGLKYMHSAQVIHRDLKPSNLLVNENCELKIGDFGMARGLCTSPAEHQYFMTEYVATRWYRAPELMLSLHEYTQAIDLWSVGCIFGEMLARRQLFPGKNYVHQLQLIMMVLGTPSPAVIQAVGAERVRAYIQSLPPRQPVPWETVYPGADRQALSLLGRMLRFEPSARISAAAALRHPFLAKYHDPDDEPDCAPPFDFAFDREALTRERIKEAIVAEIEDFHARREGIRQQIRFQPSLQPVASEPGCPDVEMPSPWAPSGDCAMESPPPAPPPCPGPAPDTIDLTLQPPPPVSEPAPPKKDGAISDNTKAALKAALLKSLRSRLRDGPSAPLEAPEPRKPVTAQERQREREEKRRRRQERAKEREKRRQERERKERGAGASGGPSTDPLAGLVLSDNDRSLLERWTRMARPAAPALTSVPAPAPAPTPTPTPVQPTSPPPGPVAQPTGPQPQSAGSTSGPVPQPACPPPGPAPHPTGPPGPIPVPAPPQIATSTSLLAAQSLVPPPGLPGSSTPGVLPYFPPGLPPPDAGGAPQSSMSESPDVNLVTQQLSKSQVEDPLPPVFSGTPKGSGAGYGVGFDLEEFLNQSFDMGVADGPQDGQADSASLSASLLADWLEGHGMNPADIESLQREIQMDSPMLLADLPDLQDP
UniProt P09874, whole entry: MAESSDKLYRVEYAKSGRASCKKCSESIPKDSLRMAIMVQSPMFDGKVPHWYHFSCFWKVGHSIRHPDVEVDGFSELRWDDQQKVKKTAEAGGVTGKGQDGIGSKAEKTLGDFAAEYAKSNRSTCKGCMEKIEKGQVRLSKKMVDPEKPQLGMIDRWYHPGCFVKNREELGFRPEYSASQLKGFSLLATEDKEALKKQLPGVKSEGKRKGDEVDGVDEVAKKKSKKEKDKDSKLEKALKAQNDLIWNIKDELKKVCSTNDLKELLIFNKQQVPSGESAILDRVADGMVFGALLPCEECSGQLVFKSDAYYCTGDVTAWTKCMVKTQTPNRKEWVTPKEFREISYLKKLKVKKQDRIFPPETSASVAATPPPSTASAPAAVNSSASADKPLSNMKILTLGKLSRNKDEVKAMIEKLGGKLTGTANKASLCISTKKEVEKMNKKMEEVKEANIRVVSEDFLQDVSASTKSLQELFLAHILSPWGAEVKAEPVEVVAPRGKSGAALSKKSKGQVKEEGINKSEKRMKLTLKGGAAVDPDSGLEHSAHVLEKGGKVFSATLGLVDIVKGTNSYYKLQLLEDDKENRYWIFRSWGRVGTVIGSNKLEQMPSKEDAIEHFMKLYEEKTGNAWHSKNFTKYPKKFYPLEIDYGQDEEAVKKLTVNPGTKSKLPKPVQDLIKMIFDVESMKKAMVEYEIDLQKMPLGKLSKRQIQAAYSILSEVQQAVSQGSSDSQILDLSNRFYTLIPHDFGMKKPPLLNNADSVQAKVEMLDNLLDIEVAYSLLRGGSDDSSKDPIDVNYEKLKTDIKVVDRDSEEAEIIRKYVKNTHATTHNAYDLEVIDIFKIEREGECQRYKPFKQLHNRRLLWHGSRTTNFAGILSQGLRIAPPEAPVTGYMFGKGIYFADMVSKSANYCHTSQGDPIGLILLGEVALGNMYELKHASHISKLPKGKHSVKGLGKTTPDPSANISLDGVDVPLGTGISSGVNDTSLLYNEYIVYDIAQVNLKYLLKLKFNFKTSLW
UniProt P24280, whole entry: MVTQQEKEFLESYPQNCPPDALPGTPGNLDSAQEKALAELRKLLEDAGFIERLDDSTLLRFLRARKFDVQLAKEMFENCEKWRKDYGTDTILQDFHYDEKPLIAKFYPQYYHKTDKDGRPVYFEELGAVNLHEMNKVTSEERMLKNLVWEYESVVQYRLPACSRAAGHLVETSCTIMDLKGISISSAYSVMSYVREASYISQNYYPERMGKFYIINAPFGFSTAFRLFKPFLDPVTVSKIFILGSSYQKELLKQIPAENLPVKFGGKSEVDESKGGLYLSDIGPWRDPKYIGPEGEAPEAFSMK
UniProt P00519, 229-512 limits assumed: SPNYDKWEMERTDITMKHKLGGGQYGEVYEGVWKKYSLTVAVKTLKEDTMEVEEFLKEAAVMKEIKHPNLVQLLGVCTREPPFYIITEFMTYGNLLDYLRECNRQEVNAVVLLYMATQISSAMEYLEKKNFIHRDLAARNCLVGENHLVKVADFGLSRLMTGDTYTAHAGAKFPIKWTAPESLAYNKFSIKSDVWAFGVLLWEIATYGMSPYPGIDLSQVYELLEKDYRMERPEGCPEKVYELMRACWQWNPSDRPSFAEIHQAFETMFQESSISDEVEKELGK
UniProt Q9UM73, whole entry, looked up: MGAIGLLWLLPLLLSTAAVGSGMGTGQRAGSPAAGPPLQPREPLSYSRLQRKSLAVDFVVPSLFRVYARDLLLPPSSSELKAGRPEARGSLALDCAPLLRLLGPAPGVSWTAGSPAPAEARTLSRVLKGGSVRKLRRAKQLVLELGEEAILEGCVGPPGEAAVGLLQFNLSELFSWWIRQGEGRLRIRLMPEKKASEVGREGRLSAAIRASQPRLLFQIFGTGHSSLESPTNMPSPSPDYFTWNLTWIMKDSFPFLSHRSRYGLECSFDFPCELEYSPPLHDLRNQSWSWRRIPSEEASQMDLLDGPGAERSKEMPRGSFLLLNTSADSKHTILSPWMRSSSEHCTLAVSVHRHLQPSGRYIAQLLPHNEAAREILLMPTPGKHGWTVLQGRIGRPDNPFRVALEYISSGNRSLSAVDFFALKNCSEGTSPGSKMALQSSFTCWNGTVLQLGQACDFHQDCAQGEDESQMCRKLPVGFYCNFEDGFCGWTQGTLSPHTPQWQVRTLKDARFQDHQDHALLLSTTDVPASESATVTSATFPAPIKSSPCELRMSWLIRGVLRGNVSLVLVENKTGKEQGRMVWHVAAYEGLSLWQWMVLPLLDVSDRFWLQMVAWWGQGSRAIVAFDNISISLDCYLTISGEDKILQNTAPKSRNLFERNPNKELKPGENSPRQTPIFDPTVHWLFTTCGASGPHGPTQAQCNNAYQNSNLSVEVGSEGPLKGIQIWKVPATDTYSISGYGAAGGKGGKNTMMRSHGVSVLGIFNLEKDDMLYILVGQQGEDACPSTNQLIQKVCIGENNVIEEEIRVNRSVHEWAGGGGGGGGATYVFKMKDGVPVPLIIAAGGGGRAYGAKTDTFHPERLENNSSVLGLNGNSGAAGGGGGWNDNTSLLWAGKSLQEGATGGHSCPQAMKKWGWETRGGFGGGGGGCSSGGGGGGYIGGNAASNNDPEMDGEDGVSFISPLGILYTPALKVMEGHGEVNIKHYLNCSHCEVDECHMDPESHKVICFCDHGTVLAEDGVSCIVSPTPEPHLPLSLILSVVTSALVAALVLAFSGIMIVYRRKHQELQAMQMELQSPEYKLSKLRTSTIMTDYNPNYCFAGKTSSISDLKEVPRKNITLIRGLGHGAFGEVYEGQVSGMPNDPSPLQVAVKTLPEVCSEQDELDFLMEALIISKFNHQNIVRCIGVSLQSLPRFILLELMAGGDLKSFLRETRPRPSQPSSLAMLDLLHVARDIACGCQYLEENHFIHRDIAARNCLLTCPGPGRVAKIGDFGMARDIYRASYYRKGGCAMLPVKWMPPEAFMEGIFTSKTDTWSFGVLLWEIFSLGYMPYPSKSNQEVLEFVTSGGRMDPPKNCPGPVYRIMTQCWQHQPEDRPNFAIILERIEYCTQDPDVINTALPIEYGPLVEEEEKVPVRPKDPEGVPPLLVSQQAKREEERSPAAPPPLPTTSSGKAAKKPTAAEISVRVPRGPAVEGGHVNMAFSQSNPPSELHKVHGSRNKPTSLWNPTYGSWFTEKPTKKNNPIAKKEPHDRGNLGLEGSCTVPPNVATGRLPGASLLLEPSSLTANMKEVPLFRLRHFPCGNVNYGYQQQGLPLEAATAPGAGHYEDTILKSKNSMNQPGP
UniProt Q13304, whole entry: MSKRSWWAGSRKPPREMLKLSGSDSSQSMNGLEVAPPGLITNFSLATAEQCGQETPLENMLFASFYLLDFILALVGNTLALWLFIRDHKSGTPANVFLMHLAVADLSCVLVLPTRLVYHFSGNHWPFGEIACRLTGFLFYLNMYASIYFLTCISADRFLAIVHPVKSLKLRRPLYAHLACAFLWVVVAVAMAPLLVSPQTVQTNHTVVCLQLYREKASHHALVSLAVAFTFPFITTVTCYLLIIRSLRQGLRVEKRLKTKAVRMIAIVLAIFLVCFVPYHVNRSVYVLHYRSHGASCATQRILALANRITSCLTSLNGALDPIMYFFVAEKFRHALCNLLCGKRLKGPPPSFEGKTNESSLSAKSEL
UniProt P40306, whole entry, looked up: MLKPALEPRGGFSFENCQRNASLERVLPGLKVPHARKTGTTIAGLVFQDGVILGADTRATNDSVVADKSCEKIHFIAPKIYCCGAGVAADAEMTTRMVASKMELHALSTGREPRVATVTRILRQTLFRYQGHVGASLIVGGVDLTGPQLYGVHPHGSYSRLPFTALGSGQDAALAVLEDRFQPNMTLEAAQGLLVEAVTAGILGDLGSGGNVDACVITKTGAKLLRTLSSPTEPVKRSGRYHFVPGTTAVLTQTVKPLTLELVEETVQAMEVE

SMILES	target	test	system	setting	IC50
CCC(C)N1c2ccccc2C(=O)Nc2cnc(Nc3ccc(C(=O)N4CCC(N5CCN(C)CC5)CC4)cc3OC)nc21 (centres unmarked)	MAPK7 (Homo sapiens, UniProt Q13164)	kinase activity	–	–	> 10 µM
O=C1OC2CC1N(C(=O)c1cc(Cc3n[nH]c(=O)c4ccccc34)ccc1F)C2 (centres unmarked)	PARP1 (Homo sapiens, UniProt P09874)	enzyme activity	–	experiment Exp2	0.00053 µM
CC(=NNC(N)=NO)c1ccc(NC(=O)c2cc3cccc([N+](=O)[O-])c3[nH]2)cc1	RPS6KA3 (Homo sapiens, UniProt P51812)	kinase activity, inhibitor, IMAP fluorescence polarisation	–	60 min	47 µM
N#Cc1ccc2[nH]cc(/C=C/c3ccncc3)c2c1	APP amyloid-beta peptide	Aβ42 oligomerisation, ELISA	–	–	14.5 µM
O=[N+]([O-])c1cc(CN2CCN(c3ccccc3F)CC2)ccc1Cl	SEC14 (Saccharomyces cerevisiae, UniProt P24280)	phosphatidylinositol transfer, inhibitor	–	Sec14 287 nM, with: [3H]-phosphatidylinositol	5.68 ± 0.5 µM
NCCOCCOCCNC(=O)[C@@H]1CCCCNC(=O)[C@H](Cc2ccc([N+](=O)[O-])cc2)NC(=O)[C@H](CC2CCCCC2)NC(=O)C[C@H](O)[C@H](CC2CCCCC2)NC(=O)/C=C\C(=O)N1	MAP kinase-activated protein kinase 2, with p38alpha (MAPKAPK2, Homo sapiens, UniProt P49137)	inhibitor, Z'-LYTE	–	p38α-MAPKAPK2 kinase cascade	3.1 µM
Cc1ncsc1-c1ccc(CNC(=O)[C@@H]2C[C@@H](O)CN2C(=O)c2cccc(C#N)c2)cc1	von Hippel-Lindau disease tumor suppressor, with elongin B, C (VHL, Homo sapiens, UniProt P40337)	binding, fluorescence polarization	–	1% DMSO, with: FAM-HIF1α peptide tracer	11 ± 0.8 µM
COc1ccc2[nH]cc(CCc3ccccc3)c2c1	APP amyloid-beta peptide	Aβ42 oligomerisation, ELISA	–	–	> 20 µM
CCCCNC(=O)NC1CC=C(c2cc3c(Nc4cc5ncsc5cc4F)ncnc3s2)CC1 (centres unmarked)	RIPK2 (Homo sapiens, UniProt O43353)	kinase activity, inhibitor	–	–	0.008 µM
COc1ccc2[nH]cc(/C=C/c3ccc(NC(C)=O)cc3)c2c1	APP amyloid-beta peptide	Aβ42 oligomerisation, ELISA	–	–	2.5 µM
COc1cc([C@@H]2c3cc4c(cc3[C@@H](C=C(C)C)[C@H]3COC(=O)[C@H]23)OCO4)cc(OC)c1OC	Tubulin alpha/beta heterodimer (Leishmania infantum, UniProt A0A381MCS3+A4HTR0)	tubulin polymerization, inhibitor	–	37 °C, with: tubulin 1.2 mg/mL	4.1 ± 0.1 µM
O=C(CC1Cc2ccccc2C1)N[C@H](CN1CC[C@@H](F)C1)[C@H](O)c1ccc(OC(F)(F)F)cc1	UGCG (Canis lupus familiaris, UniProt A0A8I3MXG6)	enzyme activity, inhibitor	MDCK cell homogenate membranes	–	> 0.3 µM
COc1ccc(-n2nc(C(F)(F)F)nc2-c2ccc(OC)nc2)cc1	PTGS1 (Homo sapiens, UniProt P23219)	thromboxane B2 production, inhibitor, enzyme immunoassay	human whole blood	–	0.006 ± 0.003 µM
Cc1ccc(-c2cc(C(F)(F)F)c(C#N)c(SCC(=O)Nc3ccccc3F)n2)cc1	TAAR1 (Homo sapiens, UniProt Q96RJ0)	–	–	–	> 10 µM
CC(=O)N1CCN(c2ccc(Nc3ncc4c(n3)N(C)C(=O)N(c3cc(NC(=O)c5cccc(C(F)(F)F)c5)ccc3C)C4)cn2)CC1	FGFR4 (Homo sapiens, UniProt P22455)	enzyme activity, inhibitor, radiometric kinase	–	–	< 0.001 µM
CCNC(=O)C(=O)[C@H](Cc1ccccc1)NC(=O)[C@H]1CCC(=O)N1Cc1ccc(F)cc1	CAPN1 (Homo sapiens, UniProt P07384)	enzyme activity, inhibitor	–	–	0.38 ± 0.03 µM
O=C(Cc1ccccc1)N1CCN(S(=O)(=O)c2ccc3[nH]c(=O)oc3c2)CC1	NUDT15 (Homo sapiens, UniProt Q9NV35)	enzyme activity, inhibitor, malachite green	–	with: dGTP	11.1 µM
O=C(CCl)N1CCN(c2cc(N3CCCC3)nc(N3CCCC3)n2)CC1	Caspase-1 (CASP1, Homo sapiens, UniProt P29466)	enzyme activity, inhibitor	–	30 min preincubation, with: Ac-WEHD-AMC 10 µM	0.144 µM and 0.134 µM
COc1ccc(SCC(=O)Nc2ccc3nc(SCC(=O)NCC(C)C)sc3c2)cc1	ESR1	reporter gene, antagonist	HEC-1 transfected ERα luciferase reporter	–	> 50 µM
N#Cc1c2c(c(NC3CCCC3)n3c1nc1ccccc13)CCC2	ERO1-like protein alpha (Homo sapiens, UniProt Q96HE7)	enzyme activity, inhibitor, fluorescence	–	–	29.7 µM
O=C(O)c1cc(C(=O)N[C@@H](Cc2ccc(O)cc2)C(=O)O)cc([C@H]2CCN[C@@H]2C(=O)O)c1	Glutamate receptor ionotropic, NMDA 2A, with GluN1 (Grin2a, Rattus norvegicus, UniProt Q00959)	ion current, antagonist, two-electrode voltage clamp	Xenopus oocytes	GluN1/GluN2A, with: glycine 100 µM and glutamate 1 µM	1.87 ± 0.08 µM
CCOc1ccc2cc(-c3nn(CC4CCNCC4)c4ncnc(N)c34)ccc2c1	ABL1 (Homo sapiens, UniProt P00519)	kinase activity, inhibitor, radiometric	–	highest tested 10 µM	> 10 µM

SMILES	target	test	system	setting	IC50
COc1cc2nccc(Nc3ccc(NC(=O)c4ccc(C)cc4)c(O)c3)c2cc1OC	PKN3 (Homo sapiens, UniProt Q6P5Z2)	binding, split-luciferase	–	–	38 µM
O=C(CCCn1c(=S)[nH]c2ccccc2c1=O)N1CCN(c2cccc([N+](=O)[O-])c2)CC1	ESR1	reporter gene, coactivator binding inhibitor, luciferase reporter	HEC-1 cells transfected with ERα	toxicity up to 50% at 20 µM, with: estradiol 1 nM	8.2 µM
O=C(Nc1ccc(-c2nc3ccc(NC(=O)C4CCCCC4)cc3s2)cc1)C1CCCCC1	Tyrosine-protein kinase SYK, with FCER1G (SYK, Homo sapiens, UniProt P43405)	protein binding, inhibitor, TR-FRET	–	–	> 20 µM
NC(=O)c1cn(-c2ccc(F)cc2)c2ccc(CN3CCCOCC3)cc2c1=O	Grm2 (Rattus norvegicus, UniProt P31421)	calcium mobilization, negative allosteric modulator	–	–	> 10 µM
Cc1cc(N2CCCCC2)nc2ccc(NC(=O)CCC(=O)N3CCN(c4cccc(Cl)c4)CC3)cc12	Cruzipain (Trypanosoma cruzi, UniProt P25779)	enzyme activity, inhibitor, fluorogenic substrate cleavage	–	0.01% Triton X-100, with: Z-FR-AMC	25 µM
COCCN1C(=O)Cc2cc(-c3csc(NC(=O)c4cc(OC)cc(OC)c4)n3)ccc21	Scavenger receptor class B member 1 (Mus musculus, UniProt Q61009)	DiI-HDL uptake, inhibitor	mouse cells	with: DiI-HDL	0.07 µM
CS(=O)(=O)Oc1ccc(/C=C/c2c[nH]c3ccc(C#N)cc23)cc1	IDO1	enzyme activity, inhibitor	–	–	> 50 µM
O=C(Nc1ccc(-c2nc3ccccc3s2)cc1)c1ccccc1[N+](=O)[O-]	Moesin, with CD44 (Homo sapiens, UniProt P26038)	MSN-CD44 interaction, inhibitor, TR-FRET	–	with: CD44	> 100 µM
COc1cc2nccc(Oc3ccc(NC(=S)NC4CCC4)c(Cl)c3)c2cc1C(N)=O	FGFR1 (Homo sapiens, UniProt P11362)	–	–	–	1.1 µM
O=C(c1ccc(O)c(Br)c1)N1Cc2ccccc2C1	HSP90AA1 (Homo sapiens, UniProt P07900)	binding, fluorescence polarization	–	with: FITC-geldanamycin	~2.7 µM
COc1ccc(SCC(=O)Nc2ccc3nc(SCC(=O)NC4CC4)sc3c2)cc1	ESR1	reporter gene, antagonist	HEC-1 transfected ERα luciferase reporter	–	20 to 50 µM
O=C(c1ccccc1)c1ccc2[nH]c3ncccc3c2c1	ALK (Homo sapiens, UniProt Q9UM73)	ELISA	–	–	42 µM
CN1CC[C@H](c2c(O)cc(O)c3c(=O)cc(-c4ccccc4F)oc23)[C@H](O)C1	Cyclin-dependent kinase 2, part with cyclin A (CDK2, Homo sapiens, UniProt P24941)	–	–	ATP at Km	0.35 µM
O=C(Nc1ccc(Cl)cc1)C(NS(=O)(=O)c1cccs1)c1ccccc1F (centres unmarked)	Uracil nucleotide/cysteinyl leukotriene receptor, long isoform (GPR17, Homo sapiens, UniProt Q13304)	calcium mobilization, antagonist	1321-N1	–	17 ± 1.38 µM
O=C(O)CCC(NS(=O)(=O)c1cccs1)C(=O)O (centres unmarked)	FOLH1 (Homo sapiens, UniProt Q04609)	enzyme activity, inhibitor, HPLC	–	15 min, pH 7.4, 37 °C, 1% Triton X-100, with: 10 mM glutamate dipeptide substrate	> 100 µM
COc1ccc2nc3ccccc3c(SCCCN)c2c1	DYRK2 (Homo sapiens, UniProt Q92630)	inhibitor	–	with: Woodtide peptide	0.19 µM
N#Cc1cnc(Nc2nc3ccccc3o2)nc1-c1ccc2ccccc2c1	Grm5 (Rattus norvegicus, UniProt P31424)	calcium mobilization, negative allosteric modulator	–	with: glutamate EC80	> 10 µM
COc1ccc2[nH]cc(/C=C/c3cccnc3)c2c1	IDO1	enzyme activity, inhibitor	–	–	12.6 µM
CN1CCC[C@@H]1C(=O)N[C@@H](Cc1ccc(-c2ccccn2)cc1)B(O)O	Proteasome subunit beta type-10 / Proteasome subunit beta type-3 (Homo sapiens, UniProt P40306+P49720)	β2i enzyme activity, inhibitor	–	with: Ac-KQL-AMC	> 10 µM
O=C(NO)c1cc(F)cc(F)c1	HDAC6 (Homo sapiens, UniProt Q9UBN7)	enzyme activity, inhibitor, electrophoretic mobility shift	–	with: FAM-RHKK(Ac)-NH2 1 µM	0.121 µM
CC[C@H](N)c1nc2cc(-c3ccnc(F)c3)sc2c(=O)[nH]1	CDC7 (Homo sapiens, UniProt O00311)	enzyme activity, inhibitor	–	–	0.126 ± 0.00251 µM
Fc1cnccc1-c1ccc(C2(c3ccc(Cl)cc3)CCNCC2)cc1	LATS2 (Homo sapiens, UniProt Q9NRM7)	kinase activity, inhibitor, radiometric HotSpot	–	with: ATP 10 µM	0.007 µM

Excerpt of the above:
SMILES	target	test	system	setting	IC50
COc1cc2nccc(Nc3ccc(NC(=O)c4ccc(C)cc4)c(O)c3)c2cc1OC	PKN3 (Homo sapiens, UniProt Q6P5Z2)	binding, split-luciferase	–	–	38 µM
COc1ccc2nc3ccccc3c(SCCCN)c2c1	DYRK2 (Homo sapiens, UniProt Q92630)	inhibitor	–	with: Woodtide peptide	0.19 µM
O=C(Cc1ccccc1)N1CCN(S(=O)(=O)c2ccc3[nH]c(=O)oc3c2)CC1	NUDT15 (Homo sapiens, UniProt Q9NV35)	enzyme activity, inhibitor, malachite green	–	with: dGTP	11.1 µM
O=C(Nc1ccc(Cl)cc1)C(NS(=O)(=O)c1cccs1)c1ccccc1F (centres unmarked)	Uracil nucleotide/cysteinyl leukotriene receptor, long isoform (GPR17, Homo sapiens, UniProt Q13304)	calcium mobilization, antagonist	1321-N1	–	17 ± 1.38 µM
O=C(O)c1cc(C(=O)N[C@@H](Cc2ccc(O)cc2)C(=O)O)cc([C@H]2CCN[C@@H]2C(=O)O)c1	Glutamate receptor ionotropic, NMDA 2A, with GluN1 (Grin2a, Rattus norvegicus, UniProt Q00959)	ion current, antagonist, two-electrode voltage clamp	Xenopus oocytes	GluN1/GluN2A, with: glycine 100 µM and glutamate 1 µM	1.87 ± 0.08 µM
NC(=O)c1cn(-c2ccc(F)cc2)c2ccc(CN3CCCOCC3)cc2c1=O	Grm2 (Rattus norvegicus, UniProt P31421)	calcium mobilization, negative allosteric modulator	–	–	> 10 µM
